Measured values gathered from unrelated publications.
A part holds a random share of what one study measured. Substitutions count along the parent as printed.

Block 1
Target: ABI1, truncated, D143A, DHFR fusion (Arabidopsis thaliana)
Technique: DHFR PCA, deep sequencing
Medium: yeast
Notes: methotrexate growth selection, single substitutions
Added: (+)-ABA 0.39 µM
Relative to: wild-type fitted maximum
Reading: higher = stronger binding
Measurement: relative binding score
Starting sequence: PYL1, truncated, DHFR fusion (Arabidopsis thaliana); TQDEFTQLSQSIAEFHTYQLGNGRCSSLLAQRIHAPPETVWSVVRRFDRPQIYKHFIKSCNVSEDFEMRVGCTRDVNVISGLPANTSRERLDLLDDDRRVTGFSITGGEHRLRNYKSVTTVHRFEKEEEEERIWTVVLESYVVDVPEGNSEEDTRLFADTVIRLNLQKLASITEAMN
L82W: 47%
P83L: 1.48%
R45H: -5.11%
F124C: 34.4%

Block 2
Target: CCNB1, cyclin fold, Cln2 fusion (human)
Technique: yeast growth competition, sequencing
Medium: yeast
Notes: weak parent motif
Relative to: not given
Reading: higher = stronger binding
Measurement: normalised enrichment score
Starting sequence: GMNC docking peptide (human); KNAKRNLSSEFAN
KNAKRNLSSEFLN [A12L]: 0.0783
KNAKRNLSSESAN [F11S]: 0.378
KNAKFNLSSEFAN [R5F]: 0.0926
KGAKRNLSSEFAN [N2G]: 0.147

Block 3
Target: Histone acetyltransferase KAT6A, winged helix 2, GST fusion (KAT6A, Homo sapiens, UniProt Q92794, residues 85-181)
Technique: protein binding microarray
Molecule type: double-stranded DNA, one strand shown
Medium: in vitro
Tested at: not given
Notes: 8-mer, flanks averaged, mean of 2 arrays, mostly near background
Relative to: not given
Reading: higher = stronger binding
Measurement: E-score
Construct (chain): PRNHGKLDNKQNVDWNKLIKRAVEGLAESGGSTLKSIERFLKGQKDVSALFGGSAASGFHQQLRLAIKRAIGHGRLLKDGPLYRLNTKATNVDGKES
GCGTTTTA: 0.112
GAAGGGAC: 0.0353
CTGATGGA: -0.0156
GGTTCCTA: -0.0717
TATCAGCA: 0.0592

Further values, each from its own experiment
PhoQ, residues 284 288 289 292 302 303 SSLVEF  fold induction (PhoP, residues 12 14 15 18 19 DLLYY (Escherichia coli, UniProt P23836); Sort-seq, item: YFP reporter; E. coli; PhoQ-PhoP variant library, added: 10 µM Mg2+; relative to: high Mg2+ state, higher = stronger signaling): 1.35
